Measurements pooled from the literature.
Numbered parts are unrelated; each lists some results of a single study.
Sequence of UniProt P42336 (whole entry, unmodified, looked up): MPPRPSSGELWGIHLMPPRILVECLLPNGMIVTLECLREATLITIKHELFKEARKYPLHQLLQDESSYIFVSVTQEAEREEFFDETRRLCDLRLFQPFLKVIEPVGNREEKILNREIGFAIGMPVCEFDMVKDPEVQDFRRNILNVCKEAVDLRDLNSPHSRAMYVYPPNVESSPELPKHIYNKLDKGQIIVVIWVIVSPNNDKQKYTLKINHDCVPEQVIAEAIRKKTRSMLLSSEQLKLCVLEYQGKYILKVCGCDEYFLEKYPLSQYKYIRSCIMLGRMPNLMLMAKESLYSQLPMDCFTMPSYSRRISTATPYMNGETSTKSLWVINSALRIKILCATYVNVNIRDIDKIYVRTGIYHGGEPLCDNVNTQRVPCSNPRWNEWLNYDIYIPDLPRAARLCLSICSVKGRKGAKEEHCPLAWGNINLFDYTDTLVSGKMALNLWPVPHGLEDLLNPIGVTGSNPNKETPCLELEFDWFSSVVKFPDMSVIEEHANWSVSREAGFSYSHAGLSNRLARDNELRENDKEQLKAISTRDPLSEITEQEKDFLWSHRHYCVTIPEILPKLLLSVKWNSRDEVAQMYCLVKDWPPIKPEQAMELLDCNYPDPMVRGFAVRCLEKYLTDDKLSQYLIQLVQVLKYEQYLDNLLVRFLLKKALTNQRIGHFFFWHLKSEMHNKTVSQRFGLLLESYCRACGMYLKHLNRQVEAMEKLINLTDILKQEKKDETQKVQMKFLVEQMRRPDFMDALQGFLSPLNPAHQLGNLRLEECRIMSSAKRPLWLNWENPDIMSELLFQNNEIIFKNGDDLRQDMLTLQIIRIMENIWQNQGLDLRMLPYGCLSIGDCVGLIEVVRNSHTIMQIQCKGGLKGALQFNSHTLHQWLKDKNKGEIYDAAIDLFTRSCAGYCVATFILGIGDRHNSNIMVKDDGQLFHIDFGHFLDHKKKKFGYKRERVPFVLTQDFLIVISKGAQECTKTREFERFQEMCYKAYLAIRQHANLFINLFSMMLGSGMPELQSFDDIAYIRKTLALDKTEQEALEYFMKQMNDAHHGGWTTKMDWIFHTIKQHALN
Sequence of UniProt Q6P2M8 (whole entry, looked up): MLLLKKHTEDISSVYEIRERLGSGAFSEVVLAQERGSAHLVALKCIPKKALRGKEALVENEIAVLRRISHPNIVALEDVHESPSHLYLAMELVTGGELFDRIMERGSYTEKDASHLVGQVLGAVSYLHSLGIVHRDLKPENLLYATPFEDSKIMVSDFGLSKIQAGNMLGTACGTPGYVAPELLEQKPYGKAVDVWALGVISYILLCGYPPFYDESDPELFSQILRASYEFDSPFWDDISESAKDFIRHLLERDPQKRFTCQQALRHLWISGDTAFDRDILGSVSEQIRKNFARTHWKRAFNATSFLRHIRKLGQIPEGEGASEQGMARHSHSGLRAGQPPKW
Sequence of UniProt Q5VT25 (whole entry, looked up): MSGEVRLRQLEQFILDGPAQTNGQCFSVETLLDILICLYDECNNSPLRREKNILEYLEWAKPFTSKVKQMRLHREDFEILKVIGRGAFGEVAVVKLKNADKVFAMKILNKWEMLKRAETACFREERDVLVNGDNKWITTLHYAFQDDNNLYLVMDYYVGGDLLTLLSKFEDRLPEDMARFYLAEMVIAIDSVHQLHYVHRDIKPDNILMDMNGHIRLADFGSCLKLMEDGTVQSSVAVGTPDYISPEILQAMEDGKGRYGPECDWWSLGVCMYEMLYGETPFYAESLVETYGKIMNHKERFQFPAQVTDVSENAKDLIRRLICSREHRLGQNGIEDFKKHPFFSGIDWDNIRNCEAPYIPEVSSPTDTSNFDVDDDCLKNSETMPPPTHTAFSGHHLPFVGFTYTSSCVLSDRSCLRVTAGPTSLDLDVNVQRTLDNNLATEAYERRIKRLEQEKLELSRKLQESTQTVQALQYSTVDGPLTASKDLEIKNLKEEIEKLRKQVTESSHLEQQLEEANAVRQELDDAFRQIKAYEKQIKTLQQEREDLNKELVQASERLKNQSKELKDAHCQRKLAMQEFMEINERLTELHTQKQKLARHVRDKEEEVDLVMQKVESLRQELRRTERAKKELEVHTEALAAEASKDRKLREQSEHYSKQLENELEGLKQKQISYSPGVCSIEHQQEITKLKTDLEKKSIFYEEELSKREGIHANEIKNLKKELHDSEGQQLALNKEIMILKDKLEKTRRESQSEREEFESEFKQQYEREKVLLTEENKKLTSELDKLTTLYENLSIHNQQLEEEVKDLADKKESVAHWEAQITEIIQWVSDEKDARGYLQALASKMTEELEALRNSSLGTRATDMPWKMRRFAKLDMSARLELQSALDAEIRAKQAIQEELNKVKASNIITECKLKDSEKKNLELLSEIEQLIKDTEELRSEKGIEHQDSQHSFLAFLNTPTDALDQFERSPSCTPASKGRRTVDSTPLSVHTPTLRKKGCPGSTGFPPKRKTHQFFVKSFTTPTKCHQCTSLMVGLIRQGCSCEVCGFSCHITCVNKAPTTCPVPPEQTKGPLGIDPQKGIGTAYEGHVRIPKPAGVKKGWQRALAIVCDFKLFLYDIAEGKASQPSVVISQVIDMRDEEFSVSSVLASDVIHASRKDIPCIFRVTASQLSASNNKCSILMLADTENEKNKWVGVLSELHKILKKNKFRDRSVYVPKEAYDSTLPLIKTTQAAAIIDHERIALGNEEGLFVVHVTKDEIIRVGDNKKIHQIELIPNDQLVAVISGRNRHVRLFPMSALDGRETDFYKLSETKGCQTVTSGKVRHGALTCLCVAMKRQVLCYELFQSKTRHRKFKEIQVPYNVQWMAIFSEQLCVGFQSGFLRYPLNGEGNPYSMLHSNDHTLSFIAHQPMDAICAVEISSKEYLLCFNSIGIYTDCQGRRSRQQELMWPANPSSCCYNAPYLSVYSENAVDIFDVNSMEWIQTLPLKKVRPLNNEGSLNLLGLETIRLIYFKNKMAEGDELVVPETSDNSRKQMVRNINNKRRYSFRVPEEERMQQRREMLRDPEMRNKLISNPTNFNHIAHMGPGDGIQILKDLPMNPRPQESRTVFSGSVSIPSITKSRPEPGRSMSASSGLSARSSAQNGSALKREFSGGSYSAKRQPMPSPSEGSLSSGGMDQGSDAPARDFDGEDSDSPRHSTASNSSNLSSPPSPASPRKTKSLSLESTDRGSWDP
Sequence of UniProt P42679 (whole entry, looked up): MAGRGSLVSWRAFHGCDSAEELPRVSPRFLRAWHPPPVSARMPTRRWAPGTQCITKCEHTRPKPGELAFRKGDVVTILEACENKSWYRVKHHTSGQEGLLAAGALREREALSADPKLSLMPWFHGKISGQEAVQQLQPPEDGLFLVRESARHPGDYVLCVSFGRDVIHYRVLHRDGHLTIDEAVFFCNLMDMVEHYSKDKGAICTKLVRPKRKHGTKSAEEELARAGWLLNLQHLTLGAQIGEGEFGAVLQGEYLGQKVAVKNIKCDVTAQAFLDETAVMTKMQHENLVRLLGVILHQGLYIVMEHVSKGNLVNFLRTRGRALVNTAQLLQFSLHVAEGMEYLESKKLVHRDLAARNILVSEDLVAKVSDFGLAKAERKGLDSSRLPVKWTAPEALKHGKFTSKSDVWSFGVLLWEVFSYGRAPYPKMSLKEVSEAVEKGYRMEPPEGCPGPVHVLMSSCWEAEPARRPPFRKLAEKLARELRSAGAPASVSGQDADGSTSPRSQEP

Sample 1
Structure (SMILES): CO[C@H]1CC[C@H](CNc2ccc(S(=O)(=O)NC(=O)c3ccc(N4CCN(CC5=C(c6ccc(Cl)cc6)CC(C)(C)CC5)CC4)cc3Oc3cnc4[nH]ccc4c3)cc2[N+](=O)[O-])CC1
Observed: cell-free assay
Method: competition with immobilised ligand
Concentration: 1 µM
| target | remaining binding [%] |
| --- | --- |
| Epidermal growth factor receptor (EGFR, Homo sapiens, UniProt P00533, G719C) | 67 |
| Receptor-type tyrosine-protein kinase FLT3 (FLT3, Homo sapiens, UniProt P36888, R834Q) | 100 |
| Phosphatidylinositol 4,5-bisphosphate 3-kinase catalytic subunit alpha isoform (PIK3CA, Homo sapiens, UniProt P42336, E545K) | 96 |
| Serine/threonine-protein kinase MRCK alpha (CDC42BPA, Homo sapiens, UniProt Q5VT25) | 56 |
| Phosphatidylinositol 4,5-bisphosphate 3-kinase catalytic subunit alpha isoform (PIK3CA, Homo sapiens, UniProt P42336, E545A) | 67 |
| Megakaryocyte-associated tyrosine-protein kinase (MATK, Homo sapiens, UniProt P42679) | 89 |
| Calcium/calmodulin-dependent protein kinase type 1B (PNCK, Homo sapiens, UniProt Q6P2M8) | 81 |

Sample 2
Target: Beta-1 adrenergic receptor (ADRB1, Homo sapiens, UniProt P08588)
Sequence of UniProt P08588 (whole entry, looked up): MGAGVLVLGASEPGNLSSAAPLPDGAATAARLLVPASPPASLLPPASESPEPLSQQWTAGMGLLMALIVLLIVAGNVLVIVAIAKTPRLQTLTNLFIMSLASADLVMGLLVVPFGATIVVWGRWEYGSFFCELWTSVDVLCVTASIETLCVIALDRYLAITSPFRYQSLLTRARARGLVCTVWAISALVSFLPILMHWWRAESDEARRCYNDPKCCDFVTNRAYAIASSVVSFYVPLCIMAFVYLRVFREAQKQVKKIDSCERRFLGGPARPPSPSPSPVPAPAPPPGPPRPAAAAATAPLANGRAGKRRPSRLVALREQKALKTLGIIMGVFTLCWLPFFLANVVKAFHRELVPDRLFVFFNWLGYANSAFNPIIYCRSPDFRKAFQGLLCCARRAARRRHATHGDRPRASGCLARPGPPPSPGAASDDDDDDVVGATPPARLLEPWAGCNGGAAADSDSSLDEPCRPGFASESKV
Mode: agonist
| SMILES | EC50 [µM] |
| --- | --- |
| O=C(CSc1nc2ccccc2n1CCc1ccccc1)c1ccc(O)c(O)c1 | ≥ 100 |
| c1ccc(-c2ccccc2Nc2cnc3ccc(N4CCOCC4)nn23)cc1 | ≥ 100 |
| O=c1c2nc(-c3ccccc3)ccc2ncn1-c1ccc(F)cc1F | ≥ 100 |
| Cc1ccccc1-c1n[nH]c2ncc(-c3ccsc3)nc12 | ≥ 100 |
| Cc1ccc(CNc2ncnc3[nH]ncc23)o1 | ≥ 100 |

Sample 3
Species: human
Matrix: microsomes or S9
Concentration: 2 µM
Time: 0.5 h
| Compound | remaining compound [%] |
| --- | --- |
| COc1ccc2nc(C3=CCCN(C)C3)n(C)c2c1 | 71.5 |
| OC1(Cc2cccc(Br)c2)CCNCC1 | 64 |
| Cc1cccc(NC(=N)/N=c2\nc(O)c(Cc3ccccc3)c(C)[nH]2)c1 | 30.9 |
| CSc1ncc(Br)c(OC(C)C)n1 | 7.91 |
| O=[N+]([O-])c1c(Nc2cc(F)cc(Cl)c2)ccc2nonc12 | > 99.9 |
| O=S(=O)(c1cccc2cccnc12)N1CCCC1c1noc(CO)n1 (stereo not shown) | 77.4 |
| CNc1cc(Cn2c(C(=O)c3cc(C)cc(Br)c3)c(C(C)C)c(=O)[nH]c2=O)cc(F)n1 | 7.83 |

Sample 4
Organism: Sarcocystis neurona
Observed: parasite growth
Concentration: 10 µM
Time: 96 h
Notes: first screen
Relative to: untreated
| Compound | log2 fold change |
| --- | --- |
| Cc1[nH]cnc1CN1CCc2c(c3ccccc3n2C)C1=O | 0.14 |
| COc1cc([C@@H]2c3cc4c(cc3[C@@H](O[C@@H]3O[C@@H]5CO[C@@H](C)O[C@H]5[C@H](O)[C@H]3O)[C@H]3COC(=O)[C@H]23)OCO4)cc(OC)c1O | -0.00906 |
| CC1COc2c(N3CCN(C)CC3)c(F)cc3c(=O)c(C(=O)O)cn1c23 (stereo not shown) | -0.32 |
| CO/N=C(\C(=O)N[C@@H]1C(=O)N2C(C(=O)O)=C(COC(C)=O)CS[C@H]12)c1csc(N)n1 | 0.26 |
| Cc1occc(=O)c1O | 0.14 |
| CC(C)(C#N)c1cc(Cn2cncn2)cc(C(C)(C)C#N)c1 | -0.12 |

Repeated from above (sample 3):
| Compound | remaining compound [%] |
| --- | --- |
| CNc1cc(Cn2c(C(=O)c3cc(C)cc(Br)c3)c(C(C)C)c(=O)[nH]c2=O)cc(F)n1 | 7.83 |
